Measurements gathered from unrelated publications.
Lines come from different studies, so protocols differ. “And” joins repeats or separate records; there may be more than shown.
Target: Ephrin type-A receptor 8 (EPHA8, Homo sapiens, UniProt P29322)
Sequence (P29322 28-1005, as in one of the studies): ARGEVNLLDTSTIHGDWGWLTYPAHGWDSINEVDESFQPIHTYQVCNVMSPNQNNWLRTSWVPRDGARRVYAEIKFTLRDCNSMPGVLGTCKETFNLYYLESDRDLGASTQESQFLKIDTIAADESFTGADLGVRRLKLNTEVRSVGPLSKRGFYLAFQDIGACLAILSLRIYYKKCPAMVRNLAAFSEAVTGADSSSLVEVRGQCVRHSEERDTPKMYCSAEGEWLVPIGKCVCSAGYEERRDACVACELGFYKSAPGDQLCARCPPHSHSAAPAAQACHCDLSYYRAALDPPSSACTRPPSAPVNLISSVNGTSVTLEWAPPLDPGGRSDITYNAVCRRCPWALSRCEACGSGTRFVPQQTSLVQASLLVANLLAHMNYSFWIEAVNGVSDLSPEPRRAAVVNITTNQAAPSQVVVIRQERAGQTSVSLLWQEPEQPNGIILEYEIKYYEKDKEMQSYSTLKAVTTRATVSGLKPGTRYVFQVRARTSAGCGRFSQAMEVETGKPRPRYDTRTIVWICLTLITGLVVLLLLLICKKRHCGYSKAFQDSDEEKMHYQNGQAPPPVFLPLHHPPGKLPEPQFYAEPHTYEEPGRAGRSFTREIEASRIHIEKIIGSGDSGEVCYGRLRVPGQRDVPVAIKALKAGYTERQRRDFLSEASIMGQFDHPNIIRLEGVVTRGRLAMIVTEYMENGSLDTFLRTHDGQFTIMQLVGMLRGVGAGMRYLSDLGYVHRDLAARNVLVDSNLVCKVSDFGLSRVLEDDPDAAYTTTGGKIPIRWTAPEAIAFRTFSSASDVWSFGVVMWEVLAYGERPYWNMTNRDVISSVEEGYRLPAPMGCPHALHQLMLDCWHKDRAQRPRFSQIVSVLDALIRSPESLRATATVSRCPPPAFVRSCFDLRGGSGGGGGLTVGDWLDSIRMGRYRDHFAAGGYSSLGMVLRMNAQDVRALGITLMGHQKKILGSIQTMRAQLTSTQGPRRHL

NC(=O)C[C@H]1CCc2sc3ncnc(O[C@H]4CC[C@H](N5CCOCC5)CC4)c3c21 has an inhibition of 11% (enzyme activity, inhibitor; 10 µM).
C=CC(=O)N1CCc2ccc(-n3c(=O)ccc4cnc5ccc(-c6cnn(C)c6)cc5c43)cc21 gave a remaining binding of 96% (KINOMEscan; 1 µM; baseline: DMSO control).
The remaining binding of CCN1CCN(Cc2ccc(NC(=O)c3ccc(C)c(NC(=O)c4cncc(-c5cccs5)c4)c3)cc2C(F)(F)F)CC1 is reported as 0% (binding, competition with immobilised ligand; 1 µM).
CNC(=O)C[C@H](Cc1ccc(C#N)cc1)NC(=O)c1cc(-c2ccc(CN[C@H](C)c3ccc(C)cc3)o2)ccc1Cl — result for “activity vs control”: 106% (enzyme activity, inhibitor; 1 µM).
The remaining binding of CNC(=O)C1CCN(c2cc(C)c(F)cc2NC(=O)c2ccc(-c3cc(O)ccc3C)c(C)c2)CC1 is reported as 1.3% (binding, competition with immobilised ligand; 1 µM).
With O=C=[N][Ru-4]123([n]4c5ccc(O)cc5c5c6c(c7cc(F)c[n+]1c7c54)C(=O)NC6=O)[S+]1CC[S+]2CC[S+]3CC1 (stereo not drawn) the remaining activity was 134% (enzyme activity; 100 nM, human enzyme, with: 10 µM ATP; baseline: untreated).
Cc1ccc(-c2c(/C=C(\C#N)C(=O)NC(C)C)n(CCCO)c3ncnc(N)c23)cc1 has a remaining binding of 66% (cell-free assay, competition with immobilised ligand; 1 µM).
COCC12C(=O)NC3C4(C(OC)CC1O)C1CC5(O)C(OC)C(O)C(OC(C)=O)(C1C5OC(=O)c1ccccc1)C3(O)C(OC)C24 (stereo not drawn) has a remaining activity of 111% and 115% (kinase activity, inhibitor, ProQinase kinase profiling; 25 µM; baseline: control).
C=CC(=O)N1CCCC(n2c(=O)c3ncccc3n(Cc3ccc(Oc4ccccc4)cc3)c2=O)C1 (stereo not drawn) has a remaining binding of 92% (cell-free assay, competition with immobilised ligand; 1 µM).
With Cc1cccc(O[C@H]2CCC[C@@H](C(C)CNCc3ccncc3)C2)c1 (relative stereo) the inhibition was -2% (cell-free assay; 1 µM).
With COc1ccc(NC(=O)Nc2ccc3c(c2)C(=O)N(C(C)CO)CC(C)C(CN(C)Cc2ccc4c(c2)OCO4)O3)cc1 (stereo not drawn) the remaining activity was 96% (kinase activity, KinaseProfiler; 0.03 µM, species human; baseline: control).
For CC(C)=CC1OC(C)(C)C2C=C3C(=O)C(Cl)=CC(O)C3C3C(O)C4OC4C(=O)C132 (stereo not drawn), the remaining binding was 88% (cell-free assay, competition with immobilised ligand; 10 µM).
For CCN1CCN(Cc2ccc(C(=O)Nc3ccc(C)c(NCc4cnc5[nH]ccc5c4OC)c3)cc2C(F)(F)F)CC1, the remaining binding was 1.4% (binding, competition with immobilised ligand; 1 µM).
COc1c(OCCCN2CCOCC2)ccc2c1N=C(NC(=O)c1cnc(N)nc1)N1CCN=C21 gave a remaining activity of 109% (kinase activity, inhibitor; 1 µM; baseline: untreated control).
For C=CC(=O)Nc1cccc(-c2cnc3[nH]cc(C(=O)NC(C)(C)C)c3n2)c1, the inhibition was 6% and 4% (kinase activity; 0.1 µM).

For quick reference, copied from above:
For CC(C)=CC1OC(C)(C)C2C=C3C(=O)C(Cl)=CC(O)C3C3C(O)C4OC4C(=O)C132 (stereo not drawn), the remaining binding was 88% (cell-free assay, competition with immobilised ligand; 10 µM).
For CCN1CCN(Cc2ccc(C(=O)Nc3ccc(C)c(NCc4cnc5[nH]ccc5c4OC)c3)cc2C(F)(F)F)CC1, the remaining binding was 1.4% (binding, competition with immobilised ligand; 1 µM).
